Assay results collected from several papers.
± marks the error that the study gave.
gag-pol protease: Gag-Pol polyprotein, protease (gag-pol, Human immunodeficiency virus type 1 group M subtype B, UniProt P04585)
gag-pol K653N reverse transcriptase: Gag-Pol polyprotein, reverse transcriptase (gag-pol, Human immunodeficiency virus type 1 group M subtype B, UniProt P04585, K653N)
Chain of UniProt P12390 (whole entry, looked up): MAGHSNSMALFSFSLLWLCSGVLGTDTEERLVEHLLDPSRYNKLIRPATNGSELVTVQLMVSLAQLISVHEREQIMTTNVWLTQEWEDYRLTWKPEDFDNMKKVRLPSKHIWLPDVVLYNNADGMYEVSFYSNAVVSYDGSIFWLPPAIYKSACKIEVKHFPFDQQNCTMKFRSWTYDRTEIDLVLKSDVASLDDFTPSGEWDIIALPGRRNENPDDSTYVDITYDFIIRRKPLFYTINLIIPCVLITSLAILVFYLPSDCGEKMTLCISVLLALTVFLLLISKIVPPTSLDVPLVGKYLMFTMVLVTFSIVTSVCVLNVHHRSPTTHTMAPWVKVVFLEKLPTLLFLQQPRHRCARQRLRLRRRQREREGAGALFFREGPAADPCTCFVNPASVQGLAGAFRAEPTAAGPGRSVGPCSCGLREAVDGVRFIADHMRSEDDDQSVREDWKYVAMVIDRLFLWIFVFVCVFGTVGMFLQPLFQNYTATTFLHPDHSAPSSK
Chain of UniProt Q13336 (whole entry, looked up): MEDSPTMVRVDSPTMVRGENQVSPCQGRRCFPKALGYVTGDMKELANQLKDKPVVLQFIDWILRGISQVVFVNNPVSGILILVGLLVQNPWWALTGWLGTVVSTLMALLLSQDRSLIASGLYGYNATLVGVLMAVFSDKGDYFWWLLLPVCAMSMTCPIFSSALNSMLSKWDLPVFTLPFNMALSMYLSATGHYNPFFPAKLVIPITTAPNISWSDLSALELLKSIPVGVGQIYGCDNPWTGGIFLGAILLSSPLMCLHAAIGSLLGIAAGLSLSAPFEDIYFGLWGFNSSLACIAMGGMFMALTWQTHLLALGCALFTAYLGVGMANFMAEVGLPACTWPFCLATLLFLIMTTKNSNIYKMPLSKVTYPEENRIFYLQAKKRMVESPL
Chain of UniProt P0A8T7 (whole entry, looked up): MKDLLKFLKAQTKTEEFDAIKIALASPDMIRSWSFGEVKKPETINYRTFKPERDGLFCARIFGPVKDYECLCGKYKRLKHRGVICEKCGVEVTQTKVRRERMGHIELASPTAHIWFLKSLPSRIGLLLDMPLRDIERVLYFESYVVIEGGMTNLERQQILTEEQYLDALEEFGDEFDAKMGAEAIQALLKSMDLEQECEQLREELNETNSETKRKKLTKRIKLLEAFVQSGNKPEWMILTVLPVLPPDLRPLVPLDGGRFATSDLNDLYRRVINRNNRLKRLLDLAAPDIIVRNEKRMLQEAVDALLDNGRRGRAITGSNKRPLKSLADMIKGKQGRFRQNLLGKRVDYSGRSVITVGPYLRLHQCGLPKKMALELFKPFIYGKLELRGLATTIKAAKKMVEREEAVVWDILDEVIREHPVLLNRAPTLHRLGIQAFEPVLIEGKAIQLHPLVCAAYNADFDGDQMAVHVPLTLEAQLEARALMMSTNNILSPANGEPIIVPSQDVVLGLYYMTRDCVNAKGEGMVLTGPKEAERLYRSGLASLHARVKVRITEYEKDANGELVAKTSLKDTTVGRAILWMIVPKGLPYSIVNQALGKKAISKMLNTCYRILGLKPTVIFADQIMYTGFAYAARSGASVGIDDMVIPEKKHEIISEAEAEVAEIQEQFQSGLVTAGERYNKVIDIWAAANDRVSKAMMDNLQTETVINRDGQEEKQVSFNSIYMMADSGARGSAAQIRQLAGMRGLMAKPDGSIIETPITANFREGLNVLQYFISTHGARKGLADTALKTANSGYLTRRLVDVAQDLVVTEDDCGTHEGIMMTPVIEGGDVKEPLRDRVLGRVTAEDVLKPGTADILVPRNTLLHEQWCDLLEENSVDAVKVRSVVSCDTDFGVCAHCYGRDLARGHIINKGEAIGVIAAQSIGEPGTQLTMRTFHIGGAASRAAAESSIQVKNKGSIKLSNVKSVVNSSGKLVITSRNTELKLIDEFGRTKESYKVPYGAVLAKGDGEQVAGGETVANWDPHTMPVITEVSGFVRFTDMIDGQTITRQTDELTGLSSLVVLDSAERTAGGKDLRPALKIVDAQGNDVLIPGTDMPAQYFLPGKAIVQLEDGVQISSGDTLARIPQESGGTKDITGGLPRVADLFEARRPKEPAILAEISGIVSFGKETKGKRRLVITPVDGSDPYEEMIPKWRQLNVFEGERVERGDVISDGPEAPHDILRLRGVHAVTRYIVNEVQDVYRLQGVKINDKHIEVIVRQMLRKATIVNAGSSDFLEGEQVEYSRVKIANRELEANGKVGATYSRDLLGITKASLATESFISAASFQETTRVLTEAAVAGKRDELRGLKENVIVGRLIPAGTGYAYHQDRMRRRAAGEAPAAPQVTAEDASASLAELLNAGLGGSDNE
Chain of UniProt Q9H0C2 (whole entry, unmodified, looked up): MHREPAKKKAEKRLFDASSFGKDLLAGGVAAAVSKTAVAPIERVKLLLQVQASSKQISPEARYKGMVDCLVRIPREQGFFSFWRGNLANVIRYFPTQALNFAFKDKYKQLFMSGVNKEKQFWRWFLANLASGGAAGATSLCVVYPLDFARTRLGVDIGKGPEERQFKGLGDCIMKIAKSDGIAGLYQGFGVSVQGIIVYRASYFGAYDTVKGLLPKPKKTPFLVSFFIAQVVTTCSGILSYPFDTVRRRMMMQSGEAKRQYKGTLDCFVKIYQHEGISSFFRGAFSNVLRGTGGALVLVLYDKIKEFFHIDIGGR
Chain of UniProt P42260 (whole entry, looked up): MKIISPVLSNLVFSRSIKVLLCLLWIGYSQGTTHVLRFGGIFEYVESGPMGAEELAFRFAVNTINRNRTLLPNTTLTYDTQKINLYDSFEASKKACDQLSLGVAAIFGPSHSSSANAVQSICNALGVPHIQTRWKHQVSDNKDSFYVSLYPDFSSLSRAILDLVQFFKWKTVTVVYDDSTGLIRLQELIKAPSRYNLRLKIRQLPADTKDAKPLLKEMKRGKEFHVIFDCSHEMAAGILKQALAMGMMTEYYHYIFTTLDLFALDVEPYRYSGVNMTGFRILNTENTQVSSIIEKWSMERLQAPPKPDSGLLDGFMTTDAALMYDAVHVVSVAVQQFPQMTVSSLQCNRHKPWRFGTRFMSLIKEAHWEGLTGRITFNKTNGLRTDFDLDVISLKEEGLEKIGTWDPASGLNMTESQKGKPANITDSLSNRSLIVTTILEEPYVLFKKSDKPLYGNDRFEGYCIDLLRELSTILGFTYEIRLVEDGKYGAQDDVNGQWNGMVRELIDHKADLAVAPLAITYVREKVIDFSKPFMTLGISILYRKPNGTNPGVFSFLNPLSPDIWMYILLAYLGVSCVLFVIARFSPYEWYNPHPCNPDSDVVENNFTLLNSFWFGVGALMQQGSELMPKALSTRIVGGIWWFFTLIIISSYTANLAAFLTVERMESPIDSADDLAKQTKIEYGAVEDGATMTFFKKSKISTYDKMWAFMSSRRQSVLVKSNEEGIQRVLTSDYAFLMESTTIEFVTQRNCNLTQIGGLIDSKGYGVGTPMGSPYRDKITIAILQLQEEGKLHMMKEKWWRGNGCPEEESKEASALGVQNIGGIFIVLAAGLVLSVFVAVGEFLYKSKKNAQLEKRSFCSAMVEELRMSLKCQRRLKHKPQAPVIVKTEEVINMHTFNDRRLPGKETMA
Chain of UniProt P51168 (whole entry, looked up): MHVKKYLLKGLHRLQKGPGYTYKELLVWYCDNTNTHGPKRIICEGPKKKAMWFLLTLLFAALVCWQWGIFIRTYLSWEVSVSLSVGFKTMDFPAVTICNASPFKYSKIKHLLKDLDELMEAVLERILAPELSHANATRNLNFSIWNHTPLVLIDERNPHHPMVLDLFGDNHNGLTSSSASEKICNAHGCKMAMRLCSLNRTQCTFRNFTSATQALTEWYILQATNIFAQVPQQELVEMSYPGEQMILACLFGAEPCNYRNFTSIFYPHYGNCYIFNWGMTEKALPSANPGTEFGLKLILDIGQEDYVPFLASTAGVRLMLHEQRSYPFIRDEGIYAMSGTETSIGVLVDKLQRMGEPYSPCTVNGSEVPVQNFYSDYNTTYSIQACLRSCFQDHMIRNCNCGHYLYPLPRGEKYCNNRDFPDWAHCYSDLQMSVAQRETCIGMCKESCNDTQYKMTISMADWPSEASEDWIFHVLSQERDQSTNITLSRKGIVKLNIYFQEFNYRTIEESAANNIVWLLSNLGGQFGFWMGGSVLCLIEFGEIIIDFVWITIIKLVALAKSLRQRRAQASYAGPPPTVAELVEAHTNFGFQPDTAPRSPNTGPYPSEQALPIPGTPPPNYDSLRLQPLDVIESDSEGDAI
Chain of UniProt P43143 (whole entry, looked up): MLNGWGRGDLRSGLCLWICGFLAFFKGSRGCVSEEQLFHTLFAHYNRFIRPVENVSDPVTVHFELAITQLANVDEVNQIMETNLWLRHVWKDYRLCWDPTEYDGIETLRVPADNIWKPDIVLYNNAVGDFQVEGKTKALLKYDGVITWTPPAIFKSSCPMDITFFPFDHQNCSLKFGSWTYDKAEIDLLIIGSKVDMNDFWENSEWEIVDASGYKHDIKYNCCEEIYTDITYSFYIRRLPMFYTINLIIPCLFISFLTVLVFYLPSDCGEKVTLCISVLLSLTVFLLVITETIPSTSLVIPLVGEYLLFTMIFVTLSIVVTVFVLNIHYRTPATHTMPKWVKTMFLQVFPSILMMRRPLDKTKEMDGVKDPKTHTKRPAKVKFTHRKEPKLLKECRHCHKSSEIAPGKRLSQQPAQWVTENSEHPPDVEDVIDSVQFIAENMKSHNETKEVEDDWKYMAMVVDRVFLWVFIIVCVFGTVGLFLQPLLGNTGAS

`CCc1c(C(=O)C(N)=O)c2c(OCC(=O)O)cccc2n1Cc1ccccc1` has a viability difference of 38.8% (C2C12; 10 µM, added: PB venom; baseline: venom alone).
With `CCC(N)=O` the Ki was 30000 µM (Urea transporter 1 (Homo sapiens, UniProt Q13336); urea transport inhibition; added: thiourea).
For `N[C@@H](C[C@]1(C(=O)O)C[C@H]2OC[C@@H](O)[C@@H](O)[C@H]2O1)C(=O)O`, the Ki was 0.0084 µM (Glutamate receptor ionotropic, kainate 2 (Grik2, Rattus norvegicus, UniProt P42260); binding; HEK293T/17 membranes; added: [3H]kainate).
For `CC[C@H](C)[C@H](NC(=O)[C@@H](NC(=O)[C@H](CC(C)C)NC(=O)[C@H](CC(N)=O)NC(=O)[C@H](CC(=O)O)NC(=O)[C@H](CCC(=O)O)NC(=O)[C@@H](NC(=O)[C@@H](N)CCCNC(=N)N)[C@@H](C)CC)C(C)C)C(=O)N[C@H](C(=O)N[C@@H](CCCNC(=N)N)C(=O)O)[C@@H](C)CC`, the Kd was 0.01 to 0.1 µM (Epithelial sodium channel subunit beta (Homo sapiens, UniProt P51168); isothermal titration calorimetry; recombinant, His and GST tag).
`CNC(=O)[C@@H](NC(=O)[C@H](CC(C)C)[C@H](O)C(=O)NO)C(C)(C)C`: “remaining fibrinogen Bβ chain” 0.632 (human fibrinogen; SDS-PAGE; Daboia russelii; concentration not given, unit not given, added: KA venom; baseline: untreated fibrinogen).
`CC[C@H](C)[C@H](NC(=O)[C@H](CC(C)C)NC(=O)[C@H](CO)NC(=O)[C@H](CCC(=O)O)NC(=O)[C@@H](NC(=O)[C@H](CC(C)C)NC(=O)[C@H](CO)NC(=O)[C@@H](NC(=O)[C@H](Cc1ccc(O)cc1)NC(=O)[C@H](CS)NC(C)=O)[C@@H](C)O)[C@@H](C)CC)C(=O)N[C@@H](CCCNC(=N)N)C(=O)N[C@@H](CCC(=O)O)C(=O)N[C@@H](CO)C(=O)N[C@@H](CCC(N)=O)C(=O)N[C@@H](CCC(=O)O)C(=O)N[C@@H](CCC(N)=O)C(=O)N[C@@H](CCC(N)=O)C(=O)N[C@@H](CCC(=O)O)C(=O)N[C@@H](CCCCN)C(=O)N[C@@H](CC(N)=O)C(=O)N[C@@H](CCC(=O)O)C(=O)N[C@@H](CCC(N)=O)C(=O)N[C@@H](CCC(=O)O)C(=O)N[C@@H](CC(C)C)C(=O)N[C@@H](CCCNC(=N)N)C(=O)N[C@@H](CCC(=O)O)C(=O)N[C@@H](CC(C)C)C(=O)N[C@@H](CC(=O)O)C(=O)N[C@@H](CCCCN)C(N)=O` has a Ki of 3 ± 0.33 µM (Envelope glycoprotein gp160, gp41 hydrophobic pocket (env, Human immunodeficiency virus type 1 group M subtype B, UniProt P04578); HIV-1).
For `C=C1[C@@H]2CC[C@H]3[C@]4(C)C[C@H](O[C@@H]5O[C@H](CO)[C@@H](OS(=O)(=O)O)[C@H](OS(=O)(=O)O)[C@H]5OC(=O)CC(C)C)C[C@@H](C(=O)O)[C@H]4CC[C@]3(C2)[C@H]1O`, “IC50 difference between isoforms” read “no effect” (ADP/ATP translocase 4 (SLC25A31, Homo sapiens, UniProt Q9H0C2, A30V); ADP/ATP exchange; yeast mitochondria; human ANT isoforms).
`COc1ccc(S(=O)(=O)N(CC(C)C)C[C@@H](O)[C@H](Cc2ccccc2)NC(=O)O[C@H]2CCC[C@]23CCO[C@H](c2cccc(OC)c2)C3)cc1` gave a Ki of 0.14 µM (gag-pol protease; enzyme activity, inhibitor).
The IC50 of `Cc1cn([C@H]2C[C@H](N=[N+]=[N-])[C@@H](CO[P@](=O)(O)O[P@](=O)(O)OP(=O)(O)O)O2)c(=O)[nH]c1=O` is reported as 0.563 µM (gag-pol K653N reverse transcriptase; inhibitor; HIV-1).
For `N[C@@H](CCCc1c[nH]c2ccccc12)C(=O)O`, the Ki was greater than 250 µM (tryptophanase (Bacteroides thetaiotaomicron); enzyme activity, inhibitor; Bacteroides thetaiotaomicron).
The Ki of `COc1ccc(S(=O)(=O)N(CC(C)C)C[C@@H](O)[C@H](Cc2ccccc2)NC(=O)O[C@@H]2CCC[C@]23CCO[C@H](c2cc(OC)cc(OC)c2)C3)cc1` is reported as 0.133 µM (gag-pol protease; enzyme activity, inhibitor).
For `Nc1ncnc2c([C@@H]3N[C@H](CO)[C@@H](O)[C@H]3O)c[nH]c12`, “inhibition of viral RNA” read 3.1% (Marburg virus; item: viral RNA in supernatant; HeLa, Musoke; 0.8 µM).
With `AaH II scorpion toxin` the Kd was 0.193 ± 0.042 µM (rat Nav1.2a/Kv2.1 VSD IV chimera R1629A/L1630A; two-electrode voltage clamp; Xenopus oocytes; 22 °C).
`CC(=O)O[C@@H]1[C@H](N)[C@@H](OP(=O)(O)O)[C@@]2(C(=O)O)CS[C@@](O)(C(N)=O)[C@@H]1O2` has a Kd of 2.5 ± 0.2 µM (DNA-directed RNA polymerase subunit beta' / DNA-directed RNA polymerase subunit beta (rpoC/rpoB, Escherichia coli, UniProt P0A8T7+P0A8V2); binding to elongation complex, 6-MI fluorescence titration; wild-type RNAP; 3′-deoxy RNA 3′-end Uracil).
`CC[C@H](C)[C@H](NC(=O)[C@H](CC(C)C)NC(=O)[C@H](Cc1c[nH]c2ccccc12)NC(=O)[C@H](CCC(N)=O)NC(=O)[C@@H](NC(=O)[C@H](Cc1ccccc1)NC(=O)[C@H](C)NC(=O)[C@H](CCCCNC(=O)COCCOCCNC(=O)COCCOCCNC(=O)CC[C@H](NC(=O)CCCCCCCCCCCCCCCCCCC(=O)O)C(=O)O)NC(=O)[C@H](CCC(N)=O)NC(=O)[C@H](C)NC(=O)[C@@H](NC(=O)[C@H](CCCCN)NC(=O)[C@H](CC(=O)O)NC(=O)[C@H](CC(C)C)NC(=O)C(C)(C)NC(=O)[C@@H](NC(=O)[C@H](CO)NC(=O)[C@H](Cc1ccc(O)cc1)NC(=O)[C@H](CC(=O)O)NC(=O)[C@H](CO)NC(=O)[C@@H](NC(=O)[C@H](Cc1ccccc1)NC(=O)[C@@H](NC(=O)CNC(=O)[C@H](CCC(=O)O)NC(=O)C(C)(C)NC(=O)[C@@H](N)Cc1ccc(O)cc1)[C@@H](C)O)[C@@H](C)O)[C@@H](C)CC)[C@@H](C)CC)C(C)C)C(=O)N[C@@H](C)C(=O)NCC(=O)NCC(=O)N1CCC[C@H]1C(=O)N[C@@H](CO)C(=O)N[C@@H](CO)C(=O)NCC(=O)N[C@@H](C)C(=O)N1CCC[C@H]1C(=O)N1CCC[C@H]1C(=O)N1CCC[C@H]1C(=O)N[C@@H](CO)C(N)=O`: “treatment-emergent ADA positive subjects” 0% (healthy subjects, single ascending dose; 1.0 mg, postbaseline).
With `CC[C@H](C)[C@H](NC(=O)[C@H](CC(C)C)NC(=O)[C@H](Cc1c[nH]c2ccccc12)NC(=O)[C@H](CCC(N)=O)NC(=O)[C@@H](NC(=O)[C@H](Cc1ccccc1)NC(=O)[C@H](C)NC(=O)[C@H](CCCCNC(=O)COCCOCCNC(=O)COCCOCCNC(=O)CC[C@H](NC(=O)CCCCCCCCCCCCCCCCCCC(=O)O)C(=O)O)NC(=O)[C@H](CCC(N)=O)NC(=O)[C@H](C)NC(=O)[C@@H](NC(=O)[C@H](CCCCN)NC(=O)[C@H](CC(=O)O)NC(=O)[C@H](CC(C)C)NC(=O)C(C)(C)NC(=O)[C@@H](NC(=O)[C@H](CO)NC(=O)[C@H](Cc1ccc(O)cc1)NC(=O)[C@H](CC(=O)O)NC(=O)[C@H](CO)NC(=O)[C@@H](NC(=O)[C@H](Cc1ccccc1)NC(=O)[C@@H](NC(=O)CNC(=O)[C@H](CCC(=O)O)NC(=O)C(C)(C)NC(=O)[C@@H](N)Cc1ccc(O)cc1)[C@@H](C)O)[C@@H](C)O)[C@@H](C)CC)[C@@H](C)CC)C(C)C)C(=O)N[C@@H](C)C(=O)NCC(=O)NCC(=O)N1CCC[C@H]1C(=O)N[C@@H](CO)C(=O)N[C@@H](CO)C(=O)NCC(=O)N[C@@H](C)C(=O)N1CCC[C@H]1C(=O)N1CCC[C@H]1C(=O)N1CCC[C@H]1C(=O)N[C@@H](CO)C(N)=O` the Tmax was 24 h (human, plasma; subcutaneous, 10.0 mg once weekly, week 15, multiple doses).
The Kd of `CC[C@H](C)[C@H](NC(=O)[C@H](CC(C)C)NC(=O)[C@H](CO)NC(=O)[C@H](Cc1c[nH]cn1)NC(=O)[C@@H](NC(=O)[C@H](CC(C)C)NC(=O)[C@H](CO)NC(=O)[C@@H](NC(=O)[C@H](Cc1ccc(O)cc1)NC(=O)[C@H](CC(N)=O)NC(=O)[C@H](CC(N)=O)NC(=O)[C@@H](NC(=O)[C@H](CCC(=O)O)NC(=O)[C@H](CCCNC(=N)N)NC(=O)[C@H](CC(=O)O)NC(=O)[C@H](Cc1c[nH]c2ccccc12)NC(=O)[C@H](CCC(=O)O)NC(=O)[C@H](CCSC)NC(=O)[C@H](Cc1c[nH]c2ccccc12)NC(C)=O)[C@@H](C)CC)[C@@H](C)O)[C@@H](C)CC)C(=O)N[C@@H](CCC(=O)O)C(=O)N[C@@H](CCC(=O)O)C(=O)N[C@@H](CO)C(=O)N[C@@H](CCC(N)=O)C(=O)N[C@@H](CC(N)=O)C(=O)N[C@@H](CCC(N)=O)C(=O)N[C@@H](CCC(N)=O)C(=O)N[C@@H](CCC(=O)O)C(=O)N[C@@H](CCCCN)C(=O)N[C@@H](CC(N)=O)C(=O)N[C@@H](CCC(=O)O)C(=O)N[C@@H](CCC(N)=O)C(=O)N[C@@H](CCC(=O)O)C(=O)N[C@@H](CC(C)C)C(=O)N[C@@H](CC(C)C)C(=O)NCC(=O)N[C@@H](CO)C(=O)NCC(=O)N[C@@H](CSCC(=O)O[C@H]1CC[C@@]2(C)C(=CC[C@H]3[C@@H]4CC[C@H]([C@H](C)CCCC(C)(C)O)[C@@]4(C)CC[C@@H]32)C1)C(N)=O` is reported as 14.3 ± 8.2 µM (membrane binding, di-8-ANEPPS dipole potential; POPC:cholesterol LUVs; ratio 2:1).
`C[C@H](Cn1cnc2c(N)ncnc21)OCP(=O)(O)O` has an IC50 of 1.065 ± 0.00121 µM (gag-pol K653N reverse transcriptase; inhibitor; HIV-1).
`COc1ccc([C@H]2C[C@]3(CCC[C@H]3OC(=O)N[C@@H](Cc3ccccc3)[C@H](O)CN(CC(C)C)S(=O)(=O)c3ccc(OC)cc3)CCO2)cc1` has a Ki of 0.0474 µM (gag-pol protease; enzyme activity, inhibitor).
`Clc1cc(N2C[C@@H]3CN[C@@H]3C2)cnc1Cl` gave a Ki of 0.0019 ± 0.0004 µM (Chrnb2/Chrna6 (Rattus norvegicus, UniProt P12390+P43143); rat).
Under “treatment-related TEAE, Moderate severity”, `Cn1cnc(Cn2c(=O)[nH]/c(=N\c3cc4cn(C)nc4cc3Cl)n(Cc3cc(F)c(F)cc3F)c2=O)n1` is recorded as 12.5% (human, moderate renal impairment; oral, 375 mg).

Repeated from above:
The Ki of `COc1ccc(S(=O)(=O)N(CC(C)C)C[C@@H](O)[C@H](Cc2ccccc2)NC(=O)O[C@@H]2CCC[C@]23CCO[C@H](c2cc(OC)cc(OC)c2)C3)cc1` is reported as 0.133 µM (gag-pol protease; enzyme activity, inhibitor).
`CNC(=O)[C@@H](NC(=O)[C@H](CC(C)C)[C@H](O)C(=O)NO)C(C)(C)C`: “remaining fibrinogen Bβ chain” 0.632 (human fibrinogen; SDS-PAGE; Daboia russelii; concentration not given, unit not given, added: KA venom; baseline: untreated fibrinogen).
